Measured values from different studies.
Every numbered part comes from another study and shows a few of its results, in no order.

Series 1 — method: protein binding microarray; form: double-stranded DNA, one strand shown; matrix: in vitro; concentration: not given; baseline: not given; reading: higher = stronger binding; quantity: E-score
Target: Histone acetyltransferase KAT6A, winged helix 1, GST fusion (KAT6A, Homo sapiens, UniProt Q92794, residues 1-85)
Setting: 8-mer, flanks averaged, mean of 2 arrays, mostly near background
Construct (chain): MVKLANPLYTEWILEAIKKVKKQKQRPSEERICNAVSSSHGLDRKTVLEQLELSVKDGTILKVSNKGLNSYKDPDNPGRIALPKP
Sequence = CAAACTGG; value = -0.332
Sequence = CTTCAACC; value = -0.022
Sequence = AAGTGTAT; value = -0.141
Sequence = CGCTCTAA; value = 0.191
Sequence = AATTTTCA; value = -0.254
Sequence = GCAATCCA; value = -0.133
Sequence = CACCGACC; value = 0.181
Sequence = ACAACTGG; value = -0.235
Sequence = GCGTCATA; value = 0.00741
Sequence = CTAGGTGC; value = -0.00439
Sequence = ACTTTGCG; value = 0.0763
Sequence = ACAGCAGG; value = -0.0956
Sequence = GGTTTCGA; value = 0.178
Sequence = CCGGCCGG; value = 0.451
Sequence = CAAGACAC; value = -0.105
Sequence = CTTTACTA; value = -0.0447
Sequence = GGGCGGAA; value = 0.0633
Sequence = CGGCAGGC; value = 0.255

Series 2 — method: RNA Bind-n-Seq; form: RNA; matrix: in vitro; concentration: 1 µM; setting: whole 134-nt RNA, ends assumed; together with: 150 mM KCl; baseline: input library; reading: higher = stronger binding; quantity: log2 enrichment
Target: Ras GTPase-activating protein-binding protein 1, RRM domain (G3BP1, Homo sapiens, UniProt Q13283)
Sequence of UniProt Q13283 (whole entry, looked up): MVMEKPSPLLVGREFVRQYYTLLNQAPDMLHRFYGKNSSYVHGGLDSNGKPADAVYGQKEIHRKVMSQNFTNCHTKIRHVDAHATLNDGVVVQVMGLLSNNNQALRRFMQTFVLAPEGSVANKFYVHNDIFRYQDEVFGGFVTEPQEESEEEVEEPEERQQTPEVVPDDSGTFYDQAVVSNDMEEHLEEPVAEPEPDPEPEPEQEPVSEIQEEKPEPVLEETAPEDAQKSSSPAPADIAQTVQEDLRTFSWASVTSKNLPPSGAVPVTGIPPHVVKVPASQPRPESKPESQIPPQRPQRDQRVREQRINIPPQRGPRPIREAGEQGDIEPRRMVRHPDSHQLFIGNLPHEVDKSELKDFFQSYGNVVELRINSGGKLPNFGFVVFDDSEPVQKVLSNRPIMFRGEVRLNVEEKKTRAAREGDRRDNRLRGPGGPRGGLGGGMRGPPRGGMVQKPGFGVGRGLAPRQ
Shared flanks, not repeated: GGGAGUUCUACAGUCCGACGAUC … UGGAAUUCUCGGGUGUCAAGG
Sequence = GUCCUGUGCUACACAUCGUAUGUACCGAAUCGUGUGUGUGUGUGUGUGUGUGUGUGUGAAAGUAUUAUGUUACGCCGUUCGGAUCUGCAC; value = 0.0963
Sequence = AAGUCCUGUGCUACACAUCGUAUGUACCGAAUCGGGGUUUGGGGUUUGGGUUUGGGGAAAGUAUUAUGUUACGCCGUUCGGAUCUGCACU; value = 0.461
Sequence = CCUCAAGUCCUGUGCUACACAUCGUAUGUACCGAAUCGGAGGUUUUUGGUGGAAAGUAUUAUGUUACGCCGUUCGGAUCUGCACUUCCAG; value = -0.166
Sequence = CCUGUGCUACACAUCGUAUGUACCGAAUCAAAUUUUUAAAUUUUUUUAAACCCCCCCAAAAAAGUAUUAUGUUACGCCGUUCGGAUCUGC; value = -0.956
Sequence = UCAAGUCCUGUGCUACACAUCGUAUGUACCGAAUCGGGUUUUUGGGUGGGAGGGAAAGUAUUAUGUUACGCCGUUCGGAUCUGCACUUCC; value = 0.4
Sequence = UCAAGUCCUGUGCUACACAUCGUAUGUACCGAAUCGGUUUGGAAAGGAAAAAGGAAAGUAUUAUGUUACGCCGUUCGGAUCUGCACUUCC; value = -0.101
Sequence = UCCUGUGCUACACAUCGUAUGUACCGAAUCGGGGUUUGGGGAAAAAAAGGGGAAAGGGGAAAGUAUUAUGUUACGCCGUUCGGAUCUGCA; value = 0.997
Sequence = CAAGUCCUGUGCUACACAUCGUAUGUACCGAAUCGGGUUUGGGAAAGGGUUUGGGAAAGUAUUAUGUUACGCCGUUCGGAUCUGCACUUC; value = 0.752
Sequence = ACCAUGCAGGUGGGCAUCUUUGGGAAGCGGGGCAAGGGGGGGAUAGGGAGGGGGGUAACACUUUGGGAACAGGUGGUCCCAGGUCGUUUC; value = -0.507
Sequence = CAAGUCCUGUGCUACACAUCGUAUGUACCGAAUCGGGAAAAGGAAAAGGAAAAGGAAAGUAUUAUGUUACGCCGUUCGGAUCUGCACUUC; value = -0.13
Sequence = UGGCCCUGGUGGCAUGCGGGGAAGAAGAGGUGGCCUCAUGGAUCGUGGUGGUCCCGGUGGAAUGUUCAGAGGUGGCCGUGGUGGAGACAG; value = 0.972
Sequence = CUGUGCUACACAUCGUAUGUACCGAAUCGGGUUUUUUUGGUUUUUUUGGGUUUUUUUGGGGAAAGUAUUAUGUUACGCCGUUCGGAUCUG; value = -0.285
Sequence = CUGUGCUACACAUCGUAUGUACCGAAUCGGGGAAAGGGGUUUUUUUGGGGAAAAAAAGGGGAAAGUAUUAUGUUACGCCGUUCGGAUCUG; value = 0.43
Sequence = UGGCCCUGGUGGCAUGCGGGGAGGAAGAGGUGGCCUCAUGGAUCGUGGUGGUCCCGGUGGAAUGUUCAGAGGUGGUCGUGGUGGAGACAG; value = 2.17

Series 3 — method: competition protein-binding microarray; form: double-stranded DNA, one strand shown; matrix: in vitro; concentration: 2 µM; together with: Pho4 competitor, 0.05 µM; reading: higher = stronger binding; quantity: fluorescence intensity; shared flanks, not repeated: … GTCTTGATTCGCTTGACGCTGCTG
Target: Centromere-binding protein 1, full length, His-tagged (CBF1, Saccharomyces cerevisiae, UniProt P17106, residues 1-351)
Sequence of UniProt P17106 (whole entry, looked up): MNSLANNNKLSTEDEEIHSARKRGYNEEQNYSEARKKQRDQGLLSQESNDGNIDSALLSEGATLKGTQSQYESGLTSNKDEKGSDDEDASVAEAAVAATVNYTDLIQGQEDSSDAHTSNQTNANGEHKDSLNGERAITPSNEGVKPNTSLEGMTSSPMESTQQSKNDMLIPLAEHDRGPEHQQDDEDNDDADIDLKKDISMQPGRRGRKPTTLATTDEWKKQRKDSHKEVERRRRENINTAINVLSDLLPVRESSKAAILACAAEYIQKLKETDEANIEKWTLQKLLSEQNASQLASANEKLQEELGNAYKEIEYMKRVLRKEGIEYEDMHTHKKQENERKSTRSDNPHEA
Setting: whole 60-bp probe, lowest competitor level
Sequence = CGTCCTAGTGATTTTCACGTGAGATCCATGAGGAAG; value = 1000 a.u.
Sequence = GCGTTATCTCTATTAGACGTGCTTTTCAAGAATTGT; value = 88.9 a.u.
Sequence = TCCTCACAGATCTGCCACGTGGCTGTGCGGCTGACC; value = 843 a.u.
Sequence = AAACAAACCCTTACCCACGTGGCCGTATGGCTATGT; value = 917 a.u.
Sequence = AAATTACTAAGTTGTGGTGTGGGTGACGCCGTATGA; value = 71.1 a.u.
Sequence = AATTGGAAAGGCCTTCACATGGTGATCCATCTTCTA; value = 88.5 a.u.
Sequence = TCTCTTTGAAGCCGTCACGATAGTTACAGCTAGGGT; value = 82.4 a.u.
Sequence = CTAACGAAGGTTTGCACTGTGGGTGACAAGCCAAGT; value = 75.1 a.u.
Sequence = TCTGTATGGGTTTGTCATGCTGCTCTGGTCCCTTAT; value = 72.4 a.u.
Sequence = TATGGCAAAAATCGAAACGTGGGTAAGTTTCGAGCC; value = 114 a.u.
Sequence = CTTGCCTACATATATTTCGTGCGATTTCAAAAATAA; value = 101 a.u.
Sequence = CTTCTGTAAATTTGTCACACCACTTGACGCGCCCCG; value = 142 a.u.
Sequence = TTGTACGATTGTTTTCACGTGTTTTTACATTTTCTG; value = 1620 a.u.
Sequence = TTATAAGGTCGTTACTATCTTTATTGCAGTTAACAG; value = 75.3 a.u.
Sequence = CTGCGCCCGCCGTAGACCGTGACAAGGAAGCTCACC; value = 85.3 a.u.
Sequence = GGTAGCGATTTCCATCACGTGACTCGTTTTTATTCC; value = 27300 a.u.
Sequence = AAATTACTAAGTTTACACGTGTTTTACCCCGTATGA; value = 1210 a.u.
Sequence = AAATTACTAAGTTGAGCAGTGGGTGACGCCGTATGA; value = 60.7 a.u.
Sequence = CTTCTGTAAATTTGTCACTTGACTTGACGCGCCCCG; value = 193 a.u.

Series 4 — method: protein-binding microarray; form: double-stranded DNA, one strand shown; matrix: in vitro; concentration: 250 nM; setting: 60-bp whole probe; together with: salmon DNA 0.4 mg/ml; baseline: random background probes; reading: higher = stronger binding; quantity: log fluorescence; shared flanks, not repeated: GCCTAGCAC … GTCTTGATTCGCTTGACGCTGCTG
Target: Interferon regulatory factor 5, full length, phosphomimetic (IRF5, Homo sapiens, UniProt Q13568-2, residues 1-514, K96S/S451D/S453D/S456D/S462D)
Sequence = GCCGGACTGGGGTATCGGGACGTGCTA; value = -0.284 z-score
Sequence = GACGGACTGGGTTTCGGGGCGTGCTAG; value = 1.32 z-score
Sequence = TTAGATTTCGGGTTTCGACTAGTGCTA; value = 6.97 z-score
Sequence = GTAAGTTTCACTTTCCAAAGGTGCTAG; value = 7.93 z-score
Sequence = GACGGTTCCGACTTTCGGGACGTGCTA; value = 4.97 z-score
Sequence = AAAGTCTTCACTCTGCTGAAGTGCTAG; value = 0.151 z-score
Sequence = TCAGCTTCCTCTCTGCCACTGTGCTAG; value = -0.00462 z-score
Sequence = TTAGATATCGGGTATCGATAAGTGCTA; value = 5.62 z-score
Sequence = TTAGGCCTCGGTCTCGGTTAGTGCTAG; value = 0.0967 z-score
Sequence = GTATATACACTTATGACTTTGTGCTAG; value = 0.483 z-score
Sequence = TCATTTTACATTATTACACTGTGCTAG; value = 1.12 z-score
Sequence = TGAGGTTTCCTACTGCTTTAGTGCTAG; value = 0.091 z-score
Sequence = TTCGATTTCAGTCTCGATTAGTGCTAG; value = 3.64 z-score
Sequence = TTAGAACTGGGGAATCGATTAGTGCTA; value = 0.333 z-score
Sequence = TCACATCGTAAGCAAAAACTGTGCTAG; value = 0.804 z-score
Sequence = TTAGGTATCGGACTGAGTTAGTGCTAG; value = 1.62 z-score
Sequence = CTAGTAGCCTAAGGCTACCGGTGCTAG; value = -0.446 z-score
Sequence = GACGATTTCGACACTGGGGACGTGCTA; value = 1.69 z-score
Sequence = TCAATTTTGCTTCTAGAACTGTGCTAG; value = 0.862 z-score
Sequence = GACGAACTGAGTCTCGAGATGTGCTAG; value = -0.0165 z-score
Sequence = GACGTTTTCCTTTCCCTGACGTGCTAG; value = 1.63 z-score
Sequence = GACGGTATCGGAATGGGGACGTGCTAG; value = 1.8 z-score
Sequence = TTTGGCTTTCCTTTATGTCCGTGCTAG; value = 0.815 z-score
Sequence = TTGGAACTGAGTATCGATTAGTGCTAG; value = 6.27 z-score
Sequence = TTAGTTTTCGGTTTCGGTTAGTGCTAG; value = 11.8 z-score

For quick reference, copied from above (series 3):
Sequence = AAATTACTAAGTTGTGGTGTGGGTGACGCCGTATGA; value = 71.1 a.u.
Sequence = AATTGGAAAGGCCTTCACATGGTGATCCATCTTCTA; value = 88.5 a.u.
Sequence = AAATTACTAAGTTTACACGTGTTTTACCCCGTATGA; value = 1210 a.u.
Sequence = GGTAGCGATTTCCATCACGTGACTCGTTTTTATTCC; value = 27300 a.u.
Sequence = CGTCCTAGTGATTTTCACGTGAGATCCATGAGGAAG; value = 1000 a.u.
Sequence = CTTGCCTACATATATTTCGTGCGATTTCAAAAATAA; value = 101 a.u.
Sequence = GCGTTATCTCTATTAGACGTGCTTTTCAAGAATTGT; value = 88.9 a.u.
Sequence = TATGGCAAAAATCGAAACGTGGGTAAGTTTCGAGCC; value = 114 a.u.
